{"data": "Results from different studies", "note": "Every numbered part comes from another study and shows a few of its results, in no order. Several values in a cell are separate wells, animals, samples, runs or records.", "sequence of UniProt P11802 (whole entry, looked up)": "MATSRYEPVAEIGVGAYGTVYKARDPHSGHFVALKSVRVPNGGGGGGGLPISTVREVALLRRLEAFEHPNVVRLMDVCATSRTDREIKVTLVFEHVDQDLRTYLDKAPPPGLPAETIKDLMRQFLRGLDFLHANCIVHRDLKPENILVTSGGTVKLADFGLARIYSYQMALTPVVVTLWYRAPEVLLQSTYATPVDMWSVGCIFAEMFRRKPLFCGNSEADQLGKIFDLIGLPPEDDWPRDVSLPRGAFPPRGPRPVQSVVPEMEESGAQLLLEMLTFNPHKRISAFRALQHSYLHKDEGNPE", "sequence of UniProt Q86Y07 (whole entry, looked up)": "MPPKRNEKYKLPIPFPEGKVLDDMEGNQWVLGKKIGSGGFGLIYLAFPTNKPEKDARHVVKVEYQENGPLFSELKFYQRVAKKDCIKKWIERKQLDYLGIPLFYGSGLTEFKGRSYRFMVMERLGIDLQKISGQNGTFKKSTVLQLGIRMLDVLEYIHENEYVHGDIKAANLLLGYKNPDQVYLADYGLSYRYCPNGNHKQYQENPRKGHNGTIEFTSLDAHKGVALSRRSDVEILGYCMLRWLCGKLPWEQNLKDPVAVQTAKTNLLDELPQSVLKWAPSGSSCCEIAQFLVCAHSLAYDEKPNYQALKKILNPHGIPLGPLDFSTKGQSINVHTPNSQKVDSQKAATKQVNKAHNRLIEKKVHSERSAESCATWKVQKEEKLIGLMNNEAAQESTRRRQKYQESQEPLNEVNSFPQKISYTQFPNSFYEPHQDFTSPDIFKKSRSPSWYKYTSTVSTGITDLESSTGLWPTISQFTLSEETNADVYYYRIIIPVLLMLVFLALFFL", "sequence of UniProt P16591 (whole entry, looked up)": "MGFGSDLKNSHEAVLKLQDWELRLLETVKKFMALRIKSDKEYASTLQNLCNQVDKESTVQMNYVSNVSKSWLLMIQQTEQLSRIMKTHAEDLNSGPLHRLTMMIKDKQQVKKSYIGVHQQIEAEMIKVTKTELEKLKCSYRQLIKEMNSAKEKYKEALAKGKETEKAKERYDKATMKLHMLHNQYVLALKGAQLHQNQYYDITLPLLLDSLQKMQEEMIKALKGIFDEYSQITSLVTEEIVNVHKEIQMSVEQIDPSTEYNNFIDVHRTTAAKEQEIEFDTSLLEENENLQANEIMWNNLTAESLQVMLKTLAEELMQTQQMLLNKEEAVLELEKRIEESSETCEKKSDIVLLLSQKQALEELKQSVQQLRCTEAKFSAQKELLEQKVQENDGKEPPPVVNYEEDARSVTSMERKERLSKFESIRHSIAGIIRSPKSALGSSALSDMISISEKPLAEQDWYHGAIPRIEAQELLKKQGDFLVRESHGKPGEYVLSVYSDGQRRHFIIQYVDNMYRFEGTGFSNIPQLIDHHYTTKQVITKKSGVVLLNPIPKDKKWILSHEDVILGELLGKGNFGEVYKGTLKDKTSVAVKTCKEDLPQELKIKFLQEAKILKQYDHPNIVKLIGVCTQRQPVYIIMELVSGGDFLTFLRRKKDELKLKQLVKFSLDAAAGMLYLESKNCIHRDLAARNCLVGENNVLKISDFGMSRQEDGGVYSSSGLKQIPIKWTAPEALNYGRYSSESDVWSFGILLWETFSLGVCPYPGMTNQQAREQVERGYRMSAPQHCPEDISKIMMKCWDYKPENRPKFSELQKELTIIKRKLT", "sequence of UniProt P29376 (whole entry, looked up)": "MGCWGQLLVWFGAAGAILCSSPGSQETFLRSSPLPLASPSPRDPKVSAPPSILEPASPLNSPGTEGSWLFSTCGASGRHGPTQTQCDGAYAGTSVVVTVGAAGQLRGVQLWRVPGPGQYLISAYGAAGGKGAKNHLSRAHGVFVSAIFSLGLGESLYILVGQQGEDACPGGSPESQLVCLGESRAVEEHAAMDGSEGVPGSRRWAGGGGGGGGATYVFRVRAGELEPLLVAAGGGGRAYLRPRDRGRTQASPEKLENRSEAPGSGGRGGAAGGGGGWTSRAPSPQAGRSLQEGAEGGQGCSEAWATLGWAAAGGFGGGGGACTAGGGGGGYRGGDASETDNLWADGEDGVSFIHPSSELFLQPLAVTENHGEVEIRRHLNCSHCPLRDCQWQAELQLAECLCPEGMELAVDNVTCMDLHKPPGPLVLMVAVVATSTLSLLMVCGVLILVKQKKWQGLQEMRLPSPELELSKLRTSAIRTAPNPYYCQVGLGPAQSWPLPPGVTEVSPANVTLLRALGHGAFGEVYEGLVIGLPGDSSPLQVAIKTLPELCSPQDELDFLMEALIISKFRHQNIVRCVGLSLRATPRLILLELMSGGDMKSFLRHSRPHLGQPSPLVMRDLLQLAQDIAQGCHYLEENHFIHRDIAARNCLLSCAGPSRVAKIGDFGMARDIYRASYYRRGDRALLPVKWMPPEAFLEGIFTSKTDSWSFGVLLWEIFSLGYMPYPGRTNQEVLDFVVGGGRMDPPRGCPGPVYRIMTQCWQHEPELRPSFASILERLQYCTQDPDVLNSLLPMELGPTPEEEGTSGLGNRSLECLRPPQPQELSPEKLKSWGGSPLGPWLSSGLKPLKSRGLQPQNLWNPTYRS", "sequence of UniProt Q13153 (whole entry, looked up)": "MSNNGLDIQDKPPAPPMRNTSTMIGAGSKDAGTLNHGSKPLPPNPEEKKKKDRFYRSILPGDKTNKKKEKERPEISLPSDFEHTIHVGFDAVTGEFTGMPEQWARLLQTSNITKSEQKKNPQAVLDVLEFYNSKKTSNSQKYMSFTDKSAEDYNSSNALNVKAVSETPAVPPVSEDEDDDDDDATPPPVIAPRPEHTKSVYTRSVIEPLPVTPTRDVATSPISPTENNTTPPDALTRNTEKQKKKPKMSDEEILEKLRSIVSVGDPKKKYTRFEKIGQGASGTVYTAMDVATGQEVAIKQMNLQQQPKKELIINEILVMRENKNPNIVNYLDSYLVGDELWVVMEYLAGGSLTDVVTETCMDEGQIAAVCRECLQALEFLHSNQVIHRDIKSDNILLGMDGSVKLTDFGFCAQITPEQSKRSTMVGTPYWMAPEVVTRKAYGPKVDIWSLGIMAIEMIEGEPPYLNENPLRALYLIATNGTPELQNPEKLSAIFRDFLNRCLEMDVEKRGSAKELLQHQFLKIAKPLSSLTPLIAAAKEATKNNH", "sequence of UniProt Q8NEV4 (whole entry, looked up)": "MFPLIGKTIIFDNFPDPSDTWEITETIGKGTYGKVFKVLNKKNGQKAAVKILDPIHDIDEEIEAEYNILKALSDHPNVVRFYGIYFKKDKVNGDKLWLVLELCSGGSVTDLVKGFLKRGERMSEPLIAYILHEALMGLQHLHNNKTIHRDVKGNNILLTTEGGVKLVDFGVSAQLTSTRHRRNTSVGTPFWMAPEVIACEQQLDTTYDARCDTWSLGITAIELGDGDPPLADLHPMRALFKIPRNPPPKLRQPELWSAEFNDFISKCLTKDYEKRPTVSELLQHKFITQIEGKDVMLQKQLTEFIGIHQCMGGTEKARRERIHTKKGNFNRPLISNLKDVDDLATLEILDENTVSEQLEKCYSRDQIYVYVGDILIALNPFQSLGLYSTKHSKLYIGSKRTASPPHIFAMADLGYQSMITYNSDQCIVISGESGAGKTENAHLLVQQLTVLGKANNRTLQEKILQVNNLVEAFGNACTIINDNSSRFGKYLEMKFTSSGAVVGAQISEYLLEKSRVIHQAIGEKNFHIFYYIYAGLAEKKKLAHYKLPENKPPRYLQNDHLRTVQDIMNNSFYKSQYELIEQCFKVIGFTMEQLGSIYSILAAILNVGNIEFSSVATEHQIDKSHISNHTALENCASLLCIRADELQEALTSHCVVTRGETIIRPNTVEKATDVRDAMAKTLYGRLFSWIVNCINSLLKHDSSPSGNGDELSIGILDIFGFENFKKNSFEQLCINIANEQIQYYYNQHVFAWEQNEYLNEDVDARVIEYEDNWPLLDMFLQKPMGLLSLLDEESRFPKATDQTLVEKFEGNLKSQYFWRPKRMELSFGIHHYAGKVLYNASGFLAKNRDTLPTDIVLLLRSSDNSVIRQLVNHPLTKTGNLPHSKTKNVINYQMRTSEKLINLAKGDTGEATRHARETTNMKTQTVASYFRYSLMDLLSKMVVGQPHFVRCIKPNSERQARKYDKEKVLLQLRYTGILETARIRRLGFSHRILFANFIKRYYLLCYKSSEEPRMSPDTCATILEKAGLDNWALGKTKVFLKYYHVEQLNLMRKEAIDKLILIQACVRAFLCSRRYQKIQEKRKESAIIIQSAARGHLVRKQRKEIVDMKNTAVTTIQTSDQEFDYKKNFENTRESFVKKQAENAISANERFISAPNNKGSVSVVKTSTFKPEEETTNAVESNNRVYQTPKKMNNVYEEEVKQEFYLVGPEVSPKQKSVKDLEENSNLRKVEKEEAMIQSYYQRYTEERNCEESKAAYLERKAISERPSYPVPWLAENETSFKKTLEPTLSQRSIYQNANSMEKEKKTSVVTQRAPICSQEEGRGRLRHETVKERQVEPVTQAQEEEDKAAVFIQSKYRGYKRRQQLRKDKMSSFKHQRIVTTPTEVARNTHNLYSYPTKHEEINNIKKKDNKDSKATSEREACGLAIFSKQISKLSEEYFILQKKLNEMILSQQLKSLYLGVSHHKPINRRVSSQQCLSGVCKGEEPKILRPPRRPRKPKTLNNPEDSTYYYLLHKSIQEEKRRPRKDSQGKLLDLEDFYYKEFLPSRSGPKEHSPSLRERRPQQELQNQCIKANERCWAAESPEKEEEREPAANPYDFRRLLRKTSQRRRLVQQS"}
{"data": "Set 1", "Structure (SMILES)": "COc1cc(-c2cn(C3CCc4ccccc4N(CC(F)(F)F)C3=O)nn2)ccc1-n1ccc(C)n1 (centres unmarked)", "technique": "competition with immobilised ligand", "tested at": "1 µM"}
{"target": "Tyrosine-protein kinase Fer (FER, Homo sapiens, UniProt P16591)", "observed": "cell-free assay", "remaining binding [%]": 100}
{"target": "Cyclin-dependent kinase 4, with cyclin D3 (CDK4, Homo sapiens, UniProt P11802)", "observed": "cell-free assay", "remaining binding [%]": 86}
{"target": "Phosphatidylinositol 3-kinase catalytic subunit type 3 (PIK3C3, Homo sapiens, UniProt Q8NEB9)", "observed": "cell-free assay", "remaining binding [%]": 100}
{"target": "Serine/threonine-protein kinase DCLK2 (DCLK2, Homo sapiens, UniProt Q8N568)", "observed": "cell-free assay", "remaining binding [%]": 92}
{"target": "Serine/threonine-protein kinase NLK (NLK, Homo sapiens, UniProt Q9UBE8)", "observed": "binding", "remaining binding [%]": 100}
{"target": "Platelet-derived growth factor receptor beta (PDGFRB, Homo sapiens, UniProt P09619)", "observed": "cell-free assay", "remaining binding [%]": 100}
{"target": "Serine/threonine-protein kinase PAK 1 (PAK1, Homo sapiens, UniProt Q13153)", "observed": "cell-free assay", "remaining binding [%]": 100}
{"target": "Leukocyte tyrosine kinase receptor (LTK, Homo sapiens, UniProt P29376)", "observed": "cell-free assay", "remaining binding [%]": 100}
{"target": "Ribosomal protein S6 kinase alpha-3, C-terminal kinase domain (RPS6KA3, Homo sapiens, UniProt P51812)", "observed": "cell-free assay", "remaining binding [%]": 100}
{"target": "Epidermal growth factor receptor (EGFR, Homo sapiens, UniProt P00533, L858R/T790M)", "observed": "cell-free assay", "remaining binding [%]": 65}
{"target": "Serine/threonine-protein kinase VRK2 (VRK2, Homo sapiens, UniProt Q86Y07)", "observed": "cell-free assay", "remaining binding [%]": 100}
{"target": "Myosin-IIIa (MYO3A, Homo sapiens, UniProt Q8NEV4)", "observed": "binding", "remaining binding [%]": 100}
{"target": "cGMP-dependent protein kinase 2 (PRKG2, Homo sapiens, UniProt Q13237)", "observed": "cell-free assay", "remaining binding [%]": 85}
{"data": "Set 2", "species": "human", "sample": "microsomes or S9", "tested at": "2 µM", "time": "0.5 h"}
{"SMILES": "COc1cc(-c2cc(NC(=O)C3CCCN(c4ncnc5c4nc4n5CCCCC4)C3)on2)cc(OC)c1OC (centres unmarked)", "remaining compound": "5.34%"}
{"SMILES": "N#Cc1nc(-c2ccccc2F)oc1NCC1CCCO1 (centres unmarked)", "remaining compound": "20.1%"}
{"SMILES": "Cc1nc2c(cc1Br)nc(Cl)n2C", "remaining compound": "15.1%"}
{"SMILES": "CCOc1ccccc1-n1nnc(C(=O)O)c1-c1ccncc1", "remaining compound": "> 99%"}
{"SMILES": "O=c1cc(O)c2sc3nc(-c4cccs4)cc(-c4ccc(F)cc4)c3c2[nH]1", "remaining compound": "93%"}
{"SMILES": "Nc1nc(N2CCOCC2)[nH]c(=O)c1Br", "remaining compound": "76.3%"}
{"SMILES": "NC(=O)COc1ccc(-c2nc(-c3ccccc3)no2)cc1", "remaining compound": "65.5%"}
{"SMILES": "Cc1cc(C)c(S(=O)(=O)NCCc2cc3c(C)ccc(C)c3[nH]c2=O)c(C)c1", "remaining compound": "3.49%"}
{"SMILES": "CCO[C@@H]1CCC[C@H](CC(=O)c2cccs2)[C@H]1C(=O)c1cccs1", "remaining compound": "2.81%"}
{"SMILES": "COc1nc([N+](=O)[O-])cn1CC(OCc1ccc(F)cc1)c1ccc(F)cc1F (centres unmarked)", "remaining compound": "6.54%"}
{"SMILES": "COc1cc(=O)n(C)cc1C(=O)N1CCc2[nH]c(=O)c(C#N)cc2C1", "remaining compound": "> 99%"}
{"data": "Set 3", "target": "Serine/threonine-protein kinase BRSK1 (BRSK1, Homo sapiens, UniProt Q8TDC3)", "observed": "enzyme activity", "action": "inhibitor", "tested at": "0.5 µM", "reference": "control", "Target sequence (Q8TDC3 1-778)": "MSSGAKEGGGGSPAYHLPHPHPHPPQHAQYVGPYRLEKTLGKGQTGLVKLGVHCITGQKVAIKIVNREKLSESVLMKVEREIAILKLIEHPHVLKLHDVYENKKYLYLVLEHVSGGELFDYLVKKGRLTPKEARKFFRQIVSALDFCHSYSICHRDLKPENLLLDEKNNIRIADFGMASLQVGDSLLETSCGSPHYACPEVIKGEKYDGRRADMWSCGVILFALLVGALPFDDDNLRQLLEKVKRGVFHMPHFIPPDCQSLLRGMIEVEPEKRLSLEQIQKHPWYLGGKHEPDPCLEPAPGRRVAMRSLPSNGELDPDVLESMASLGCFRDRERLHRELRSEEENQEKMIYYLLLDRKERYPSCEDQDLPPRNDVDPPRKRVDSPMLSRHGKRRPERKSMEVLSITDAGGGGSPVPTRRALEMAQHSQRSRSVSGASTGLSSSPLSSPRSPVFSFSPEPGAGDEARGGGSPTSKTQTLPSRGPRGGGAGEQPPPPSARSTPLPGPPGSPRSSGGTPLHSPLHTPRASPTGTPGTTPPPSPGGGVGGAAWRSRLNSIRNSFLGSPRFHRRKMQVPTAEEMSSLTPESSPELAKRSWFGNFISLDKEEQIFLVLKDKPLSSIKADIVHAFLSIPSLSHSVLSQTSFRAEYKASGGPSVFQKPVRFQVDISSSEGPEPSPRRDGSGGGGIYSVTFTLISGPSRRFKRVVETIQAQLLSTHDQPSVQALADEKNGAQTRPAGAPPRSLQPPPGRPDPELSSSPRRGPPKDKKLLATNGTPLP"}
{"Structure (SMILES)": "Cn1nc2c3c(cccc31)C(=O)c1ccccc1-2", "remaining activity [%]": 92.5}
{"Structure (SMILES)": "Cc1nc2cc3nc(-c4cccs4)cnc3cc2n1C", "remaining activity [%]": 98.7}
{"Structure (SMILES)": "C[C@@H]1CCN(C(=O)CC#N)C[C@@H]1N(C)c1ncnc2[nH]ccc12", "remaining activity [%]": 102}
{"Structure (SMILES)": "O=C(Nc1cccc(Nc2nccc(Nc3cccc(C(F)(F)F)c3)n2)c1)C1CC1", "remaining activity [%]": 97.1}
{"Structure (SMILES)": "COc1cc2ncnc(Nc3cccc(Cl)c3)c2cc1OC", "remaining activity [%]": 93.1}
{"Structure (SMILES)": "CCOc1nc(NC(=O)Cc2cc(OC)ccc2OC)cc(N)c1C#N", "remaining activity [%]": 95.7}
{"Structure (SMILES)": "CCN(CC)C(=O)c1ccc(Nc2nc(OCC3CCCCC3)c3[nH]cnc3n2)cc1", "remaining activity [%]": 84}
{"Structure (SMILES)": "COc1cc2ncnc(Nc3ccc(O)c(Br)c3)c2cc1OC", "remaining activity [%]": 81.6}
{"Structure (SMILES)": "N#C/C(=C\\c1ccc(O)c(O)c1)C(=O)NCc1ccccc1", "remaining activity [%]": 104}
{"Structure (SMILES)": "CN(C)C[C@H]1CCn2c(c(C3=C(c4cn(C)c5ccccc45)C(=O)NC3=O)c3ccccc32)C1", "remaining activity [%]": 101}
{"Structure (SMILES)": "CN([C@@H](Cc1ccc(OS(=O)(=O)c2cccc3cnccc23)cc1)C(=O)N1CCN(c2ccccc2)CC1)S(=O)(=O)c1cccc2cnccc12", "remaining activity [%]": 96.4}
{"Structure (SMILES)": "N#Cc1c(NC(=O)c2cccc3ccccc23)sc2c1CCCC2", "remaining activity [%]": 97}
{"Structure (SMILES)": "CCN(CC)CCNC(=O)c1c(C)[nH]c(/C=C2\\C(=O)Nc3ccc(Cl)cc32)c1C", "remaining activity [%]": 36.5}
{"Structure (SMILES)": "COc1cc2c(cc1OC)-c1[nH]nc(Nc3cccc(F)c3)c1C2", "remaining activity [%]": 89.3}
{"Structure (SMILES)": "Cc1cn(-c2cc(NC(=O)c3ccc(C)c(Nc4nccc(-c5cccnc5)n4)c3)cc(C(F)(F)F)c2)cn1", "remaining activity [%]": 98}
{"Structure (SMILES)": "c1ccc(-c2cnc(Nc3ccc(OCCN4CCCC4)cc3)s2)cc1", "remaining activity [%]": 97.6}
{"Structure (SMILES)": "Nc1cccc(-c2cc3c(Oc4cccc(O)c4)ncnc3[nH]2)c1", "remaining activity [%]": 83.1}
{"Structure (SMILES)": "O=C1C(Cl)=C(N2C(=O)CCC2=O)C(=O)c2ccccc21", "remaining activity [%]": 96.9}
{"Structure (SMILES)": "O=c1cc(-c2cccc3c2Sc2ccccc2S3)oc(N2CCOCC2)c1", "remaining activity [%]": 98.2}
{"Structure (SMILES)": "O=C1c2ccccc2-c2n[nH]c3cccc1c23", "remaining activity [%]": 56.9}
{"Structure (SMILES)": "Cc1cc2ncc(-c3ccccc3)nc2cc1C", "remaining activity [%]": 95.1}
{"Structure (SMILES)": "O=C(NC(NC(=S)Nc1ccc(F)c([N+](=O)[O-])c1)C(Cl)(Cl)Cl)C(c1ccccc1)c1ccccc1 (centres unmarked)", "remaining activity [%]": 98.3}
{"Structure (SMILES)": "CCN(CC)CCNC(=O)c1c(C)[nH]c(/C=C2\\C(=O)Nc3ccc(F)cc32)c1C", "remaining activity [%]": 45.1}
{"Structure (SMILES)": "Ic1cccc(CSc2nnc(-c3ccncc3)o2)c1", "remaining activity [%]": 101}
{"data": "Set 4", "Compound": "CO[C@@H]1[C@@H](OC(N)=O)[C@@H](O)[C@H](Oc2ccc3c(O)c(NC(=O)c4ccc(O)c(CC=C(C)C)c4)c(=O)oc3c2C)OC1(C)C", "species": "FVB/129P2 mice, Brca1-/- Trp53-/- TNBC allograft", "route": "intraperitoneal", "dose": "100 mg/kg twice daily"}
{"time": "33 days", "tumour volume": "1180 mm3 and 404 mm3 and 2650 mm3"}
{"time": "35 days", "tumour volume": "572 mm3 and 2020 mm3"}
{"time": "17 days", "tumour volume": "385 mm3 and 637 mm3 and 904 mm3 and 157 mm3 and 1920 mm3"}
{"time": "21 days", "tumour volume": "643 mm3 and 174 mm3 and 1030 mm3 and 691 mm3"}
{"time": "15 days", "tumour volume": "1510 mm3 and 164 mm3 and 660 mm3 and 852 mm3 and 434 mm3"}
{"time": "25 days", "tumour volume": "548 mm3 and 1030 mm3 and 1670 mm3 and 180 mm3"}
{"time": "19 days", "tumour volume": "527 mm3 and 964 mm3 and 600 mm3 and 167 mm3 and 2420 mm3"}
{"time": "3 days", "tumour volume": "493 mm3 and 744 mm3 and 239 mm3 and 338 mm3 and 140 mm3 and 157 mm3 and 229 mm3"}
{"note": "Some of these lines once more (set 3):"}
{"Structure (SMILES)": "N#C/C(=C\\c1ccc(O)c(O)c1)C(=O)NCc1ccccc1", "remaining activity [%]": 104}
{"Structure (SMILES)": "CN([C@@H](Cc1ccc(OS(=O)(=O)c2cccc3cnccc23)cc1)C(=O)N1CCN(c2ccccc2)CC1)S(=O)(=O)c1cccc2cnccc12", "remaining activity [%]": 96.4}
{"Structure (SMILES)": "Ic1cccc(CSc2nnc(-c3ccncc3)o2)c1", "remaining activity [%]": 101}
{"Structure (SMILES)": "COc1cc2ncnc(Nc3cccc(Cl)c3)c2cc1OC", "remaining activity [%]": 93.1}
{"Structure (SMILES)": "Cc1cc2ncc(-c3ccccc3)nc2cc1C", "remaining activity [%]": 95.1}
{"Structure (SMILES)": "O=C1c2ccccc2-c2n[nH]c3cccc1c23", "remaining activity [%]": 56.9}
{"Structure (SMILES)": "CCN(CC)C(=O)c1ccc(Nc2nc(OCC3CCCCC3)c3[nH]cnc3n2)cc1", "remaining activity [%]": 84}
{"Structure (SMILES)": "Cc1nc2cc3nc(-c4cccs4)cnc3cc2n1C", "remaining activity [%]": 98.7}
